Published values collected from several papers.
Several values in a cell are separate wells, animals, samples, runs or records. Numbers after ± are the reported error.

Compound	test	system	setting	how to read	measurement	result
O=C(O)c1cc(-c2ccc(F)cc2F)ccc1O	shake-flask	polysorbate 80	37 °C		thermodynamic solubility	120 ± 12.4 mg/g
O=C(O)C[C@H](O)C[C@H](O)/C=C/c1c(C2CC2)nc2ccccc2c1-c1ccc(F)cc1		male Sprague Dawley rat, control, plasma	oral, 2.5 mg/kg, geometric mean, with: silymarin 500 mg/kg oral		AUC(0-27 h)	5.7 µM·h
O=C1c2c(O)cc(O)cc2OC(c2ccc(O)c(O)c2)C1O (stereo not drawn)	mass spectrometry	Caco-2	40 µM, 6 h		Papp A→B	24.8 ×10⁻⁶ cm/s
Cc1nc2cccc(OCC(C)(C)C(=O)NC(C)C)c2c(N)c1C(=O)O		Sprague-Dawley rat, female, plasma	intravenous, 1.0 mg/kg, day 1		Cmax	2630 ± 680 ng/mL
C[N+]1(CC(=O)OC2CCCCCCCCCCC2)CCSCC1	metabolic stability	male CD-1 mouse, liver microsomes	1 µM, pH 7.4		microsomal CLint	346 µL/min/mg
CC(C)NCC(O)c1ccc(NS(C)(=O)=O)cc1 (racemic)		male Hartley guinea pig, anaesthetized	intravenous infusion, 3 mg/kg, 10 min infusion	reference: baseline	QTc change	10.9 ± 1.8%
CC(C)CCCCC(=O)N[C@@H](CCN)C(=O)N[C@H](C(=O)N[C@@H](CCN)C(=O)N[C@H]1CCNC(=O)[C@H]([C@@H](C)O)NC(=O)[C@H](CCN)NC(=O)[C@H](CCN)NC(=O)[C@H](CC(C)C)NC(=O)[C@@H](Cc2ccccc2)NC(=O)[C@H](CCN)NC1=O)[C@@H](C)O	UPLC-MS/MS	intensive care patients AKI, plasma	iv, dose not given, 6 h post-dose, steady state, polymyxin B dosing		mid-interval concentration	600 ± 200 ng/mL
O=C1N=C(N2CCOCC2)CN1c1ccc(Cl)cc1		beagle dog, both sexes	oral, 30 mg/kg, day 0, tablets, single dose		apparent volume of distribution (Vz/F)	0.704 L/kg
COc1ccc2nc([S@@+]([O-])Cc3ncc(C)c(OC)c3C)[nH]c2c1		human healthy	40 mg, oropharyngeal pain		adverse events	8%
COc1c(OCCCN2CCOCC2)ccc2c1N=C(NC(=O)c1cnc(N)nc1)N1CCN=C21		human patients, plasma	intravenous, 0.6 mg/kg 3 weeks on 1 week off, cycle 1 day 1		AUC(0-25 h)	947 ng·h/mL
COc1cc(CO)c(-c2ccc3c(c2O)[C@@H](C)N[C@H](C)C3)c2cccc(O)c12	metabolic stability	male CD-1 mouse, liver microsomes	1 µM		microsomal CLint	> 250 µL/min/mg
Cc1cc(-n2c(=O)[nH]c(=O)n(C)c2=O)ccc1Oc1ccc(SC(F)(F)F)cc1	shake-flask	polysorbate 80	37 °C		thermodynamic solubility	11.1 ± 1.29 mg/g
Cn1c(-c2ccc(C(N)=O)cc2F)nnc1C(C)(C)Oc1c(F)cc(Cl)cc1F		young Japanese adults, plasma	oral, 10 mg single dose, day 1, high-dose multiple-dose study		Tmax median	3 h
C/C=C/C=C/C=C\CC/C=C/C(=O)NCC(C)(C)O		rat, small intestine site 4 contents	oral, dose not given, 2 h, β-glucuronidase treated	reference: ingested amount	recovery	0.02%
CCN(CC)C(=S)SSC(=S)N(CC)CC	shake-flask	polysorbate 80	37 °C		thermodynamic solubility	55.7 ± 3.32 mg/g
CS(=O)(=O)OC[C@H](O)[C@@H]1CO1		Wistar rat, female, red blood cells	intraperitoneal, 500 mg/kg treosulfan, 4 h		concentration in red blood cells	3.7 µM and 3.4 µM
C=CC(N)CCC(=O)O (stereo not drawn)		male Sprague-Dawley rat, plasma	oral, 1.0 mg/kg, formulation 3, with: low-fat infant formula 1500 mg/kg		Tmax (median)	0.67 h
CC(C)n1nc(-c2ccc3oc(N)nc3c2)c2c(N)ncnc21		human, fasted	oral, 4 mg, unmilled vs milled capsules		PK profile difference	no effect

A few entries again:
Compound	test	system	setting	how to read	measurement	result
O=C1c2c(O)cc(O)cc2OC(c2ccc(O)c(O)c2)C1O (stereo not drawn)	mass spectrometry	Caco-2	40 µM, 6 h		Papp A→B	24.8 ×10⁻⁶ cm/s
CC(C)CCCCC(=O)N[C@@H](CCN)C(=O)N[C@H](C(=O)N[C@@H](CCN)C(=O)N[C@H]1CCNC(=O)[C@H]([C@@H](C)O)NC(=O)[C@H](CCN)NC(=O)[C@H](CCN)NC(=O)[C@H](CC(C)C)NC(=O)[C@@H](Cc2ccccc2)NC(=O)[C@H](CCN)NC1=O)[C@@H](C)O	UPLC-MS/MS	intensive care patients AKI, plasma	iv, dose not given, 6 h post-dose, steady state, polymyxin B dosing		mid-interval concentration	600 ± 200 ng/mL
